Experimental data of several laboratories.
Numbered parts are unrelated; each lists some results of a single study. ± gives the spread as reported. ≈ marks a conversion by molar mass, not a printed value.

Block 1
Organism: VSVΔG with SARS-CoV-2 spike
Read-out: pseudovirus infection
Strain: Wuhan variant
Tested at: 10 µM
| SMILES | inhibition |
| --- | --- |
| CS(=O)(=O)c1cc(C(F)(F)F)cc(S(C)(=O)=O)c1S(C)(=O)=O | 41% |
| c1ccc(Nc2nccc(-c3ccncc3)n2)cc1 | 59% |
| CCCCN1COc2c(cc(Cl)c3cccnc23)C1 | 59% |
| N=C(N)Nc1ccc(C(=O)Oc2ccc3cc(C(=N)N)ccc3c2)cc1 | 81% |
| COc1ccc(N2CCN(C(=O)c3nc(S(C)(=O)=O)ncc3Cl)CC2)cc1 | 45% |
| Cc1ccc(/C(C#N)=C2\C=CC(=NO)C(Cl)=C2)cc1 | 46% |
| Cc1sc2nc(CN3CCCC3)nc(Sc3nnnn3C3CCCC3)c2c1C | 36% |
| N#CC(=NNc1ccc(OC(F)(F)F)cc1)C(=O)c1ccc(Cl)cc1 | 41% |

Single results of other studies
rep papain-like protease: Replicase polyprotein 1ab, papain-like protease (rep, Severe acute respiratory syndrome coronavirus 2, UniProt P0DTD1)
Matrix protein 2 S31N: Matrix protein 2 (Influenza A virus, UniProt P0DOF5, S31N)
| SMILES | target or system | test | system | conditions | scale | measurement | value |
| --- | --- | --- | --- | --- | --- | --- | --- |
| NCc1cccnc1 | rep papain-like protease | – | – | concentration not given, C111S mutant | reference: positive control | activity | 12.7% |
| N=C(N)NCC12CC3CC(CC1C3)C2 | Matrix protein 2 S31N | – | – | concentration not given, pH 5.5, cell-based | – | inhibition | 0% |
| NCC[C@H](O)C(=O)N[C@@H]1C[C@H](N)[C@@H](O[C@H]2O[C@H](CN)[C@@H](O)[C@H](O)[C@H]2O)[C@H](O)[C@H]1O[C@H]1O[C@H](CO)[C@@H](O)[C@H](N)[C@H]1O | Mycobacterium tuberculosis | – | H37Rv mc2-6206 MmpL3 G253E | – | – | MIC80 | 0.85 µM (≈ 0.498 µg/mL) |
| NC12CC3CC(CC(C3)C1)C2 | Matrix protein 2 S31N | – | – | concentration not given, pH 5.5, cell-based | – | inhibition | 35.6 ± 1.5% |
| CC(C)(C)[C@H](NC(=O)C(F)(F)F)C(=O)N1C[C@H]2[C@@H]([C@H]1C(=O)N[C@H](C#N)C[C@@H]1CCNC1=O)C2(C)C | SARS-CoV-2 | viral replication | VeroE6/TMPRSS2, Omicron variants | 0.9 µM | – | inhibition | 100% |
| CC(C)(C)C(=O)Oc1ccc(S(=O)(=O)Nc2ccccc2C(=O)NCC(=O)O)cc1 | rep papain-like protease | – | – | concentration not given, C111S mutant | reference: positive control | activity | 14.1% |
| CO[C@H]1/C=C/O[C@@]2(C)Oc3c(C)c(O)c4c(O)c(c(/C=N/N5CCN(C)CC5)c(O)c4c3C2=O)NC(=O)/C(C)=C\C=C\[C@H](C)[C@H](O)[C@@H](C)[C@@H](O)[C@@H](C)[C@H](OC(C)=O)[C@@H]1C | Mycobacterium tuberculosis | – | H37Rv mc2-6206 MmpL3 G253E | – | – | MIC80 | 0.076 µM (≈ 0.0625 µg/mL) |
| CCC/C=C/C/C=C/C=C/C=N/NN=O | Severe acute respiratory syndrome coronavirus 2 | viral replication, inhibitor | Vero C1008 | – | – | IC50 | ~20 µM |

Some of these lines once more (block 1):
| SMILES | inhibition |
| --- | --- |
| CCCCN1COc2c(cc(Cl)c3cccnc23)C1 | 59% |
| N=C(N)Nc1ccc(C(=O)Oc2ccc3cc(C(=N)N)ccc3c2)cc1 | 81% |
